Measured values from different studies.
Each numbered part is a random draw from the data of one study; scales do not carry over between parts.

Sample 1
Target: Interferon regulatory factor 5, full length, phosphomimetic (IRF5, Homo sapiens, UniProt Q13568-2, residues 1-514, S451D/S453D/S456D/S462D)
Technique: protein-binding microarray
Molecule type: double-stranded DNA, one strand shown
Matrix: in vitro
Tested at: 940 nM top
Notes: 60-bp whole probe
Added: salmon DNA 0.4 mg/ml
Baseline: random background probes
Direction: higher = stronger binding
Constant ends, left off below: GCCTAGCAC … GTCTTGATTCGCTTGACGCTGCTG
Oligonucleotide	fitted relative affinity [z-score]
GTAAAATTATTCTGTATATTGTGCTAG	0.262
GACCAACTGGGGTTTCGAGACGTGCTA	1.96
GACGGTTTCGGTATCGGGAAGTGCTAG	13.5
ACTAATTTTCATTTTCCAAAGTGCTAG	1.4
GGGCTTTCCCAGCCTGGGGCTGTGCTA	-0.8
TCTCTCCCTTTATCTCTTTTGTGCTAG	3.77
TCACATTTTAGTTTTCAACTGTGCTAG	0.902
ATATGTGTATATATAATATAGTGCTAG	0.0238

Sample 2
Target: RNA binding protein fox-1 homolog 2, RRM domain, GST-SBP tag (RBFOX2, Homo sapiens, UniProt O43251-10, residues 100-194)
Technique: RNA Bind-n-Seq
Molecule type: RNA
Matrix: in vitro
Tested at: 365 nM
Notes: natural RNA segment, single round, ends assumed
Baseline: no-protein control
Direction: higher = stronger binding
Target sequence (chain): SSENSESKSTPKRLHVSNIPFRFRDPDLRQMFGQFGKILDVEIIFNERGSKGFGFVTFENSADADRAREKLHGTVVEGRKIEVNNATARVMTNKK
Oligonucleotide	RBNS enrichment (R)
GGGAGUUCUACAGUCCGACGAUCUUUUAAUACAAAGUACAAGCUCUACUUUUAUAACGUGUACUACAAGUUUCUUUAAAAGUAUUGUUGUAUUUCAGCUGAACUCUUGUAUCUGCAGUCUUUUGUUAUUUCUGUGGAAUUCUCGGGUGCCAA	0.397
GGGAGUUCUACAGUCCGACGAUCAUUGGGUGUGAGAAAAGACUGUGUCUUGAAAGAAUUAUCAAAGCUGAUACAGCACAUAUACAGAAUUAGCCAAAUGGUAUAAGACAAUAGAAAAAGGCUGUGGAUUCUUUUGGAAUUCUCGGGUGCCAA	0.555
GGGAGUUCUACAGUCCGACGAUCCUCUUGCUCUGAGCUACAAUCAUGGCUUCUCAUGUUACUUACCAAGUGAGAGUUUUGGUUAGUAAUCACAGCUGUAAAAUUGAUUUACACUUGUUAAACAUAUUGCCCCUUGGAAUUCUCGGGUGCCAA	0.334

Sample 3
Target: Ras GTPase-activating protein-binding protein 1, full length (G3BP1, Homo sapiens, UniProt Q13283)
Chain of UniProt Q13283 (whole entry, looked up): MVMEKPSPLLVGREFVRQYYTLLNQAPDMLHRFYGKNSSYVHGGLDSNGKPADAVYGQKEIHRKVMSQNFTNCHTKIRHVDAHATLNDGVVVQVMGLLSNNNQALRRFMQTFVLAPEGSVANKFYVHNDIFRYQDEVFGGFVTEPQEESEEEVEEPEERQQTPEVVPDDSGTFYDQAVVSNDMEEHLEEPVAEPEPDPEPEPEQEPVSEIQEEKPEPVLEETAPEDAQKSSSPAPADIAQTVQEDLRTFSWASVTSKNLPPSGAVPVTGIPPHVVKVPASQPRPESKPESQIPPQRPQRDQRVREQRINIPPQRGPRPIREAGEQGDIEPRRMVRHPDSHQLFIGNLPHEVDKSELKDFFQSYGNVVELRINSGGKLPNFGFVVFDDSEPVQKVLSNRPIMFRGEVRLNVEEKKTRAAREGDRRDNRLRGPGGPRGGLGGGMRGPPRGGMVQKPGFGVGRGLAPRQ
Technique: RNA Bind-n-Seq
Molecule type: RNA
Matrix: in vitro
Tested at: 200 nM
Notes: whole 134-nt RNA, ends assumed
Added: 150 mM LiCl
Baseline: input library
Direction: higher = stronger binding
All molecules: 7-deaza-guanosine replaces G
Oligonucleotide	log2 enrichment
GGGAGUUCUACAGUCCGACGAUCGCAGGAAGUAAAAACAAAUGGAAAUGCUUCGGAUAGUGGCAGGGGUGGGGGUUGCUAAGGAAAGGGUGGGAUGGGAGUGGGUGAAGAGUUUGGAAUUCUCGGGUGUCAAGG	-0.275
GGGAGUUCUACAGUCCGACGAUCAAGUCCUGUGCUACACAUCGUAUGUACCGAAUCGGGAAAAAGGGUUUUUGGGAGGGAAAGUAUUAUGUUACGCCGUUCGGAUCUGCACUUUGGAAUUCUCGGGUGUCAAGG	-0.872
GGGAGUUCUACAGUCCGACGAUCCCUGUGCUACACAUCGUAUGUACCGAAUCGGUUUUUUUGGUUUUUUUGGGUUUUUUUGGGAAAGUAUUAUGUUACGCCGUUCGGAUCUGCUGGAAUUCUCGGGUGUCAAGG	-0.75
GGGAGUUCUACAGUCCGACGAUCAGUCCUGUGCUACACAUCGUAUGUACCGAAUCGGCCCCCGGCCCCCGGGGCCCCCGGGAAAGUAUUAUGUUACGCCGUUCGGAUCUGCACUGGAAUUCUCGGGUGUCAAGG	-1.46
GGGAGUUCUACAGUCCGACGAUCGCAGGAAGUAAAAACAAAUGGAAAUGCUUCGGAUAGUGGCAGGGGUGGGGGUUGCUAAGGAAAGGGUGGGAUGGGAGUGGGUAAAUAGUUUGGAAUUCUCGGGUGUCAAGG	-0.0296

Single results of other studies
Molecule	target	assay	system	conditions	scale	endpoint	value
PhoQ, residues 284 288 289 292 302 303 GANMMA	PhoP, residues 12 14 15 18 19 AQCLL (Escherichia coli, UniProt P23836)	Sort-seq, measured: YFP reporter	E. coli	PhoQ-PhoP variant library, added: 10 µM Mg2+	baseline: high Mg2+ state, higher = stronger signaling	fold induction	2.53

For quick reference, copied from above (sample 1):
Oligonucleotide	fitted relative affinity [z-score]
TCACATTTTAGTTTTCAACTGTGCTAG	0.902
ATATGTGTATATATAATATAGTGCTAG	0.0238
